Measurements gathered from unrelated publications.
Protocols differ between the studies behind these lines. Numbers after ± are the reported error.
Organism: influenza A virus

`O=C1Nc2ccccc2/C1=N/NC(=S)N/N=C1\C(=O)Nc2ccccc21` has an EC50 of 72000 ± 27000 nM (cytopathic effect, visual CPE score; MDCK, H1N1).
For `NC(=O)c1ncn([C@@H]2O[C@H](CO)[C@@H](O)[C@H]2O)n1`, the IC50 was 970 nM (viral replication; A/Hanfang/359/95 (H3N2)).
`O=C(O)[C@H]1C2C=CC(CC2)[C@@H]1Nc1nc(-c2c[nH]c3ncc(F)cc23)nc2sccc12` (stereo partly shown) gave an EC50 of 6 nM (viral replication; A549, H1N1 PR8-GLuc).
`Nc1nc(P(=O)(O)O)nc(N)c1Cl` has an EC50 of 28000 to 50000 nM (viral replication; H1N1, H3N2).
`NC12CC3CC(CC(C3)C1)C2` has an EC50 of 25400 ± 540 nM (viral replication, MTS viability; MDCK, H1N1).
`O=C(O)[C@H]1C2CCC(CC2)[C@@H]1Nc1nc(-c2c[nH]c3ncc(F)cc23)ncc1F` gave an EC90 of 27 ± 10 nM (viral replication; A549, H1N1 PR8-GLuc).
`NC12CC3CC(CC(C3)C1)C2` has an EC50 of 3200 nM (cytopathic effect, MTS; MDCK, H1N1).
For `C[Si](C)(C)c1ccc(CNC23CC4CC(CC(O)(C4)C2)C3)cc1`, the EC50 was 600 to 1200 nM (H1N1 and H3N2 clinical isolates).
The EC50 of `NC(=O)c1ncn([C@@H]2O[C@H](CO)[C@@H](O)[C@H]2O)n1` is reported as 2500 ± 500 nM (cytopathic effect, visual CPE score; MDCK, H1N1).
The EC50 of `CC(N)C12CC3CC(CC(C3)C1)C2` (stereo not shown) is reported as 9200 ± 320 nM (viral replication, MTS viability; MDCK, H1N1).

A few entries again:
`O=C(O)[C@H]1C2C=CC(CC2)[C@@H]1Nc1nc(-c2c[nH]c3ncc(F)cc23)nc2sccc12` (stereo partly shown) gave an EC50 of 6 nM (viral replication; A549, H1N1 PR8-GLuc).
